Published values gathered from unrelated publications.
Every numbered part comes from another study and shows a few of its results, in no order.

Set 1 — method: protein-binding microarray; form: double-stranded DNA, one strand shown; medium: in vitro; tested at: not given; direction: higher = stronger binding
Target: Protein C-ets-1 (ETS1, Homo sapiens, UniProt P14921, residues 1-441, Y397A, full length assumed)
UniProt P14921, sequence (whole entry, unmodified, looked up): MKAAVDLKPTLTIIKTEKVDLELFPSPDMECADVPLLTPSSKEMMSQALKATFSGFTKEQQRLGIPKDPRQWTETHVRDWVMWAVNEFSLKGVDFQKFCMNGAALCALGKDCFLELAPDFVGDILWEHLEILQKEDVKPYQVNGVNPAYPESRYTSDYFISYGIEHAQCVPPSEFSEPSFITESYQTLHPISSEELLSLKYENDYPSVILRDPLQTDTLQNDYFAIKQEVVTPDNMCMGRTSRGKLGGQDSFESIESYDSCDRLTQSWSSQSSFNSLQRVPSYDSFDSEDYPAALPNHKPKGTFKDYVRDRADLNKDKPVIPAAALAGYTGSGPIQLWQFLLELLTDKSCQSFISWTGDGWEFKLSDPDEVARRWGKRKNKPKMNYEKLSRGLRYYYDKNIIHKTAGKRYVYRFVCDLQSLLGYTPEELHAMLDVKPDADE
Setting: k-mer, scored over probes, only values ≥0.25
The E-score of `CGTCGACA` is reported as 0.286.
The E-score of `CCTCCCCG` is reported as 0.337.
For `AACATCCG`, the E-score was 0.437.
With `ACAACACA` the E-score was 0.265.
The E-score of `ATCCGGCG` is reported as 0.31.
For `GACGTCAA`, the E-score was 0.274.

Set 2 — method: competition protein-binding microarray; form: double-stranded DNA, one strand shown; medium: in vitro; tested at: 2 µM; added: Pho4 competitor, 0.05 µM; direction: higher = stronger binding; shared flanks, not repeated: … GTCTTGATTCGCTTGACGCTGCTG
Target: Centromere-binding protein 1, full length, His-tagged (CBF1, Saccharomyces cerevisiae, UniProt P17106, residues 1-351)
UniProt P17106, sequence (whole entry, looked up): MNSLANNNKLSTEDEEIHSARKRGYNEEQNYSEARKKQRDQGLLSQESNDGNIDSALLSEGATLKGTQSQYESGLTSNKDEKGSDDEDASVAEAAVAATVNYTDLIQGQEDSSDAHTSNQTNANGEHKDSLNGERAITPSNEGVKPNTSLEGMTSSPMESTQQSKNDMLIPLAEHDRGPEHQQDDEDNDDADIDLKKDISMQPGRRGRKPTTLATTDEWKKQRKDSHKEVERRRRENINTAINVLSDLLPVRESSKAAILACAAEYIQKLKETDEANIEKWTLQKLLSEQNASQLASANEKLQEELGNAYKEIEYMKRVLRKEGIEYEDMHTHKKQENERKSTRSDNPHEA
Setting: whole 60-bp probe, lowest competitor level
For `TCGGAGTACAATCCAGTCGTGCCAGTCGAATGGTAG`, the fluorescence intensity was 67.8 a.u.
`GTCTTGTCTCATTGGAAGGTGGGTGTCCCCACTTCA` has a fluorescence intensity of 73.3 a.u.
With `CGTCCTAGTGATTGCGATGTGGGTGCCATGAGGAAG` the fluorescence intensity was 93.4 a.u.
`GCCACTGAGAATGAGCGCGTGGGACAGAAACGGTGG` gave a fluorescence intensity of 97.9 a.u.
For `TGCGCAACAACTTTTCACGTGAACTTATGTCTAGAA`, the fluorescence intensity was 1170 a.u.
`CTTTCCCGATCTTGAAGTGTGGGTGTAGCACATTTG` has a fluorescence intensity of 76.7 a.u.
The fluorescence intensity of `CGTCCTAGTGATTGTCACGGTACTTCCATGAGGAAG` is reported as 245 a.u.
`GATTGCTCTCAAAATCTCGTGGGTACCCGTCGTTGA` gave a fluorescence intensity of 77.6 a.u.
With `TGTTAGGTTTACCAGAACGTGGCCGATTTCTGCCAG` the fluorescence intensity was 79.3 a.u.

Set 3 — method: protein binding microarray; form: double-stranded DNA, one strand shown; medium: in vitro; tested at: not given; reference: not given; direction: higher = stronger binding
Target: Histone acetyltransferase KAT6A, winged helix 1, GST fusion (KAT6A, Homo sapiens, UniProt Q92794, residues 1-85)
Setting: 8-mer, flanks averaged, mean of 2 arrays, mostly near background
Construct (chain): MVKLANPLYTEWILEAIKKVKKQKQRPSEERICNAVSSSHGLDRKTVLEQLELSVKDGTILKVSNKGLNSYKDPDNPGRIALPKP
The E-score of `CCGCTGTA` is reported as 0.186.
For `GGACTACC`, the E-score was 0.0407.
The E-score of `GAAGCTTC` is reported as -0.202.
`ACAACTCA` gave an E-score of -0.27.
With `ACCAAGAA` the E-score was -0.214.
`CCATAGCC` has an E-score of 0.00227.
`AGCCAAAT` gave an E-score of -0.186.
The E-score of `AAAGATAC` is reported as -0.0676.

Other studies, line by line
For `PhoQ, residues 284 288 289 292 302 303 HSYLQF`, the fold induction was 6.25 (PhoP, residues 12 14 15 18 19 LFHKL (Escherichia coli, UniProt P23836); Sort-seq, item: YFP reporter; E. coli; PhoQ-PhoP variant library, added: 10 µM Mg2+; reference: high Mg2+ state, higher = stronger signaling).

Excerpt of the above (set 2):
The fluorescence intensity of `CGTCCTAGTGATTGTCACGGTACTTCCATGAGGAAG` is reported as 245 a.u.
With `CGTCCTAGTGATTGCGATGTGGGTGCCATGAGGAAG` the fluorescence intensity was 93.4 a.u.
